Results of several laboratories.
Every numbered part comes from another study and shows a few of its results, in no order. ± marks the error that the study gave.
UniProt Q14416, sequence (whole entry, looked up): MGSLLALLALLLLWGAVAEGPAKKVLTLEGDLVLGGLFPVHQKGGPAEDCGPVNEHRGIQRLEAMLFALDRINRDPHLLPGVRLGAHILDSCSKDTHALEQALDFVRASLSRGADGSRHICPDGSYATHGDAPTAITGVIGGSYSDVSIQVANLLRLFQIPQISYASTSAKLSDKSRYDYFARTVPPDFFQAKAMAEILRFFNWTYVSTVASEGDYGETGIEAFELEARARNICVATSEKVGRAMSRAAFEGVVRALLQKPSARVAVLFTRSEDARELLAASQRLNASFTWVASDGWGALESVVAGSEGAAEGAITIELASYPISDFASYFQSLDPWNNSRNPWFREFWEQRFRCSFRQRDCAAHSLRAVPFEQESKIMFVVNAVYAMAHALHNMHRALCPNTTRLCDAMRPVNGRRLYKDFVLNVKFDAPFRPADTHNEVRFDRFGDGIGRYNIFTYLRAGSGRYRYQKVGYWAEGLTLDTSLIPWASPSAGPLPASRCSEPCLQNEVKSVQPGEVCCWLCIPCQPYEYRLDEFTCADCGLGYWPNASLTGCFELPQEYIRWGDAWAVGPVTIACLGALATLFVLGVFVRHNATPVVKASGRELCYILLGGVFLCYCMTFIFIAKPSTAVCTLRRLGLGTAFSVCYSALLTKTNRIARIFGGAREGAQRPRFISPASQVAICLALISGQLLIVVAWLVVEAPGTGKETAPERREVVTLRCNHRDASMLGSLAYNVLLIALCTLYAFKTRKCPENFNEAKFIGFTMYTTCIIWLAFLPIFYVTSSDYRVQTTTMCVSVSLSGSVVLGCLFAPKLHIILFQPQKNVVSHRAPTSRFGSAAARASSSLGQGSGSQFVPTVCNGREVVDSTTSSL

Block 1
Target: Cyclin-dependent kinase 2, with cyclin A (CDK2, Homo sapiens, UniProt P24941)
Read-out: enzyme activity
Mode: inhibitor
Endpoint: IC50
Cc1cccc(-c2ccc3nc(NC(=O)CCC4CCCC4)nn3c2)c1: > 100 µM
Cc1ccc(C)c(-c2ccc3nc(NC(=O)C4CCCCC4)nn3c2)c1: > 100 µM
Cc1cccc(-c2ccc3nc(NC(=O)CC4CCCC4)nn3c2)c1: > 100 µM
Cc1cccc(-c2ccc3nc(NC(=O)C4CCCCC4)nn3c2)c1: > 100 µM

Single results of other studies
TP53 M133L/N239Y/N268D/V203A/Y220C DNA-binding domain: Cellular tumor antigen p53, DNA-binding domain (TP53, Homo sapiens, UniProt P04637, M133L/N239Y/N268D/V203A/Y220C)
CCCCn1ccn2c(-c3ccc(NC4CCOCC4)c(Cl)c3)c(C)nc2c1=O
metabolized fraction (human liver microsomes; 5 µM, 15 min): 23%

O=C(O)COc1ccccc1/C=N/NC(=O)CNc1ccc(Cl)cc1
seizure latency increase (measured: latency to stage 3; male mice, pilocarpine-induced seizures; oral, 20 mg/kg, dosed 30 min before pilocarpine, with: pilocarpine 300 mg/kg i.p.; reference: pilocarpine vehicle group): 95%

Cc1cc(C#N)cnc1Cl
delta Tm (TP53 M133L/N239Y/N268D/V203A/Y220C DNA-binding domain; DSF; 1 mM, 24 h, 20 °C): no effect

CCOCc1nnc2c(C(F)(F)F)c(-c3ccc4[nH]ccc4c3)ccn12
Emax (GRM2 (Homo sapiens, UniProt Q14416); agonist; no glutamate): 54%

Cc1cc(C#N)cnc1F
delta Tm (TP53 M133L/N239Y/N268D/V203A/Y220C DNA-binding domain; DSF; 1 mM, 24 h, 20 °C): no effect

CCCCn1ccn2c(-c3ccc(Oc4ccnc(C)c4)c(F)c3)c(C)nc2c1=O
brain/plasma ratio (male Sprague Dawley rat; oral, 10 mg/kg, 2 h; reference: brain over plasma): 0.3

O=C(O)COc1ccc(Br)cc1/C=N/NC(=O)c1ccc(Cl)cc1
seizure severity (Racine scale 0-5; male mice, pilocarpine-induced seizures; oral, 20 mg/kg, 1 h after pilocarpine, unit not given, with: pilocarpine 300 mg/kg i.p.; higher = more severe): 2.4 ± 0.52

Cc1nc(C#N)cnc1Cl
delta Tm (TP53 M133L/N239Y/N268D/V203A/Y220C DNA-binding domain; DSF; 1 mM, 4 h, 20 °C): 4.43 °C

O=C(O)COc1ccc(Br)cc1C=NNC(=O)Cc1ccccc1 (mixture of isomers)
nitrite level reduction (colorimetric, measured: nitrite (nitric oxide); mouse, pilocarpine epilepsy model, hippocampus; oral, 20 mg/kg; reference: pilocarpine group): 41%

CCc1nc(C#N)c(Cl)nc1Cl
delta Tm (TP53 M133L/N239Y/N268D/V203A/Y220C DNA-binding domain; DSF; 1 mM, 30 min, 20 °C): -1.3 °C

O=C(O)COc1ccc(Br)cc1/C=N/NC(=O)CNc1ccccc1
relative protection (mouse, PTZ-induced seizures; oral, 20 mg/kg; reference: valproic acid 300 mg/kg): 83.3%

Cc1ccc(Oc2ccc(-c3ccn4c(CC5CC5)nnc4c3C(F)(F)F)cc2F)c(C)n1
concentration (male Sprague-Dawley rat, plasma; subcutaneous, 10 mg/kg, 4 h, single dose): 59 ng/mL

A few entries again (single results of other studies):
Cc1cc(C#N)cnc1Cl
delta Tm (TP53 M133L/N239Y/N268D/V203A/Y220C DNA-binding domain; DSF; 1 mM, 24 h, 20 °C): no effect
